# Measured values from different studies.
# Parts stem from different laboratories: compare values within a part only. ± gives the spread as reported.
# Sequence of UniProt P68400 (whole entry, looked up): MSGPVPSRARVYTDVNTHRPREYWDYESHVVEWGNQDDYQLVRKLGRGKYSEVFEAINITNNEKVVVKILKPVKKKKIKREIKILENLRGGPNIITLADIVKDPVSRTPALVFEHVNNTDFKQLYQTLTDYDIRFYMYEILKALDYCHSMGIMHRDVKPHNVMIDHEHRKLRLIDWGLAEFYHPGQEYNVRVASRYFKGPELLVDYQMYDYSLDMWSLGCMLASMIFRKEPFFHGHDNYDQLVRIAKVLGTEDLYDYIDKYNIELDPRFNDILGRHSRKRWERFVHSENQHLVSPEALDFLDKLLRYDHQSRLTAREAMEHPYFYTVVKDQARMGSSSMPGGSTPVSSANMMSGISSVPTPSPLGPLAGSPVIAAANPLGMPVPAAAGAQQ

# Block 1 — organism: Enterobacter cloacae; strain: ATCC 23355
Structure (SMILES),MBC/MIC ratio
Cc1ccc(N=Nc2c(N)nn3c(-c4ccc(C)cc4)cc(-c4ccc(OCc5ccccc5)cc4)nc23)cc1,4
Nc1nn2c(-c3ccco3)cc(-c3ccc(OCc4ccccc4)cc3)nc2c1N=Nc1ccc(F)cc1,4
COc1ccc(N=Nc2c(N)nn3c(-c4ccc(C)cc4)cc(-c4ccc(OCc5ccccc5)cc4)nc23)cc1,3.9

# Other studies, line by line
Structure (SMILES),target or system,test,system,conditions,endpoint,value
O=C(O)c1cn(Cc2ccc(C(F)(F)F)cc2)c2ccc(Oc3ccccc3)cc2c1=O,T47D,,,"72 h, 10% FBS",CC50,14.4 ± 0.07 µM
CCOc1c([C@H](C)n2nc(C)c3c(N)ncnc32)cc(Cl)c(F)c1[C@@H]1CNC(=O)C1,,,"patients with DLBCL, plasma","oral, 30 mg, day 15, monotherapy",half-life,10.5 ± 2 h
CCOC(=O)C(=CNc1ccc(Oc2ccccc2)cc1)C(=O)OCC,Jurkat,,,72 h,CC50,34.5 ± 1.5 µM
O=C(Nc1cc(-c2ccc(Cl)cc2)[nH]n1)C1CCCCC1,"CSNK2A1 (Homo sapiens, UniProt P68400)","enzyme activity, Dundee kinase panel",,10 µM,remaining activity,103%
O=C(O)c1c[nH]c2ccc(Oc3ccccc3)cc2c1=O,MDA-MB-231,,,72 h,CC50,91.36 ± 0.11 µM

# A few entries again (block 1):
Structure (SMILES),MBC/MIC ratio
COc1ccc(N=Nc2c(N)nn3c(-c4ccc(C)cc4)cc(-c4ccc(OCc5ccccc5)cc4)nc23)cc1,3.9
